Measurements collected from several papers.
Parts stem from different laboratories: compare values within a part only.

Block 1 — technique: universal PBM; form: double-stranded DNA, one strand shown; medium: in vitro; tested at: not given; direction: higher = stronger binding; measurement: E-score
Target: Sal-like protein 4, full length isoform B (SALL4, Homo sapiens, UniProt Q9UJQ4-2, residues 1-616)
Setting: 8-mer, flanks averaged, mean of replicates
AGATTCCT: -0.028
CTACCTGC: -0.108
CGAACTTC: -0.0341

Block 2 — technique: protein binding microarray; form: double-stranded DNA, one strand shown; medium: in vitro; tested at: not given; reference: not given; direction: higher = stronger binding; measurement: E-score
Target: Histone acetyltransferase KAT6A, both winged helices, GST fusion (KAT6A, Homo sapiens, UniProt Q92794, residues 1-181)
Setting: 8-mer, flanks averaged, mean of 2 arrays, mostly near background
Construct (chain): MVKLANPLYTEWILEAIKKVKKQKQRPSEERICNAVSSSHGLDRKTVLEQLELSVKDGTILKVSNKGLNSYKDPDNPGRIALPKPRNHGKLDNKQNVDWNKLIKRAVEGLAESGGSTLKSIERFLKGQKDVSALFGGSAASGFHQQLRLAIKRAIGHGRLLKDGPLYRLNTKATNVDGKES
ATCTAATA: -0.0438
AGTTTCTA: -0.0879
AGACTGCG: 0.0971

Block 3 — technique: aptamer microarray, sandwich; form: DNA with 2'F-ANA; medium: in vitro; tested at: 200 nM; together with: Cy3 exosite-II aptamer, 400 nM; direction: higher = stronger binding; measurement: mean fluorescence intensity
Target: Prothrombin, mature alpha-thrombin (F2, Homo sapiens, UniProt P00734)
Setting: whole 15-mer aptamer, many near background
GGTTGGTGTGGTTGG (2'F-ANA at 2 3 4 5 8 9 10 11 13 14 15): 51.4 a.u.
GGTTGGTGTGGTTGG (2'F-ANA at 4 7 10 11 13): 71.2 a.u.
GGTTGGTGTGGTTGG (2'F-ANA at 1 2 3 4 8 9 10 12 13 14 15): 146 a.u.
GGTTGGTGTGGTTGG (2'F-ANA at 5 8 12 13 15): 112 a.u.

Further values, each from its own experiment
PhoQ, residues 284 288 289 292 302 303 SIHLQL  fold induction (PhoP, residues 12 14 15 18 19 IQSYL (Escherichia coli, UniProt P23836); Sort-seq, refers to: YFP reporter; E. coli; PhoQ-PhoP variant library, together with: 10 µM Mg2+; reference: high Mg2+ state, higher = stronger signaling): 6.84

Excerpt of the above (block 3):
GGTTGGTGTGGTTGG (2'F-ANA at 1 2 3 4 8 9 10 12 13 14 15): 146 a.u.
